Assay results pooled from the literature.
Each numbered part is a random draw from the data of one study; scales do not carry over between parts. Changes are numbered by the printed parent chain.

Sample 1
Target: Histone acetyltransferase KAT6A, winged helix 1, GST fusion (KAT6A, Homo sapiens, UniProt Q92794, residues 1-85)
Technique: protein binding microarray
Molecule type: double-stranded DNA, one strand shown
Medium: in vitro
Tested at: not given
Notes: 8-mer, flanks averaged, mean of 2 arrays, mostly near background
Baseline: not given
Reading: higher = stronger binding
Measurement: E-score
Construct (chain): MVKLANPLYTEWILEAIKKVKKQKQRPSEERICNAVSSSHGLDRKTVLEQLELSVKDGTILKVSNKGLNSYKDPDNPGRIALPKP
CCGAGTAG: 0.0749
AGACGAAG: -0.141
AGACCTAT: -0.0777
ACGGGTTC: 0.314
CTAGGTGA: -0.221
CGTGGGCC: 0.213
ACAGTTCA: -0.225

Sample 2
Target: RING finger protein unkempt homolog, zinc fingers 1-6, GST-SBP tag (UNK, Homo sapiens, UniProt Q9C0B0, residues 30-357)
Technique: RNA Bind-n-Seq
Molecule type: RNA
Medium: in vitro
Tested at: not given
Notes: RNA with constant flanks, human and mouse sites, ends assumed
Baseline: input RNA pool
Reading: higher = stronger binding
Measurement: bound/input enrichment
Constant ends, left off below: GGGAGUUCUACAGUCCGACGAUC … CAACAGAGGAUUGAGCAUCA
Residues (chain): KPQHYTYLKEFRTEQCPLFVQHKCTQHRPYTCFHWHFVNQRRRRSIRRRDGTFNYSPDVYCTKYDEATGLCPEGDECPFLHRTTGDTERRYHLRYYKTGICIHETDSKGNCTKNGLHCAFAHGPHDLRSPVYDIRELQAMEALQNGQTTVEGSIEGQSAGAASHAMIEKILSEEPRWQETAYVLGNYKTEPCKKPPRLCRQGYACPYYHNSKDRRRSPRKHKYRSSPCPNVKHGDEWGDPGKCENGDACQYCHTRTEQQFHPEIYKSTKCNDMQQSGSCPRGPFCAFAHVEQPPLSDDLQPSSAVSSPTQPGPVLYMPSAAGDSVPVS
UUAUGAUUAUUUCAGAGAUCGCGGAUUCAGGUGUGGCUCUAUGAGCAAGUGAAUAUGCGGAUAGAAGGCUGUAUCAUUGGUUUUGAUGAGUAUAUGAACCUUGUAUUAGAUGAUGCAGAA: 0.647 ratio
GCAGCUGGAGAUUCUAAGUCCAUCAUCACGUGUCGGGUGUCCCUUCUGGAUGGUACUGAUGUUAGUGUGGACUUGCCAAAAAAAGCCAAAGGACAAGAGUUGUUUGAUCAGAUUAUGUAC: 0.259 ratio
GACAAGCAGGUGCUGGUGCACUGGGGUUUCUACCCAGACAGCUAUGACACUUGGGUCCACAGUAAUGAUGUUGAUGCUGAAAUUGAAGAUGCACCAAUCCCAGAAAAGCCCUGGAAGGUU: 0.293 ratio
UGUUCCACUUUACUUUCCUUCCCGGGAAGUUUGUUUGGCUUUCUUCCAUUGUUGUUUUUGUAGCUUUUACUUCAGAAGUCUGUAUUUCCAUAAGCCAGAGGUUGUAAAGCCACUGAUGUU: 0.428 ratio
AAGAUGAUUUUGUGUUUACCUGUGUUCACUUUGUUUCAUGUUGUUGCCACUGUUGGCUGCUAUUGGAGUCUGAUGGAGGGGUCCUUUGCAGGGCAAGUCUGCAAACCCCGUCAGUACCAA: 0.407 ratio
UUGGAAACCAGUGCUAAGAAUGCAACGAAUGUAGAACAGUCUUUCAUGACGAUGGCAGCUGAGAUUAAAAAGCGAAUGGGUCCCGGAGCAACAGCUGGUGGUGCUGAGAAGUCCAAUGUU: 0.194 ratio
CAAGUCUAACAAUAUUUCCAUUUCUGAAAGGCCAGUGAAUGUCCUGCAGAAAAUGAGGUUACUAGACCUUUCCUCCAACCCAUCAAUUGAUGAAAGCCAGCUGAGCCUUAUAGCAGAUCU: 0.326 ratio
CCUGAUCAGCUGGUGAACAGAUCCAUUCAGCAAGGUUUCUGCUUUAAUAUUCUCUGUGUGGGGGAAACUGGAAUUGGAAAAUCAACACUGAUUGACACAUUGUUUAAUACUAAUUUUGAA: 0.239 ratio
ACACAAUAUGAGACCAACAGCAUGGACUUCAAAGUUGGGGCAGAUGGGACAGUCUUCGCCACCCGGGAGCUGCAGGUCCCCUCCGAGCAGGUGGCGUUCACGGUGACUGCAUGGGACAGC: 0.256 ratio
UUUCGGGGCUCUGCGGAACCUUCUCUGUACAGCGCCCCCUUUCUGUUGUGCUAUUGGUUGCAGCUGCCAUGCUCAGAAUGCGUUUUGAGAGCUGAAGCAAGGUGCUUGCAGUCACCUGAG: 0.0537 ratio
GCAGAUGUGAUGAGAGCUUCUUGACCAGUAAACAAACUAGCCCAGGUCUGAGAGAGACGUGCUAAAGGAGAGUCUACGUCUGGGAACUCUAUUUAUUUUCCUGUUUCUCCGGUGUGAAGA: 0.295 ratio

Sample 3
Target: ABI1, truncated, D143A, DHFR fusion (Arabidopsis thaliana)
Technique: DHFR PCA, deep sequencing
Medium: yeast
Notes: methotrexate growth selection, single substitutions
Added: (+)-ABA 0.11 µM
Baseline: wild-type fitted maximum
Reading: higher = stronger binding
Measurement: relative binding score
Starting sequence: PYL1, truncated, DHFR fusion (Arabidopsis thaliana); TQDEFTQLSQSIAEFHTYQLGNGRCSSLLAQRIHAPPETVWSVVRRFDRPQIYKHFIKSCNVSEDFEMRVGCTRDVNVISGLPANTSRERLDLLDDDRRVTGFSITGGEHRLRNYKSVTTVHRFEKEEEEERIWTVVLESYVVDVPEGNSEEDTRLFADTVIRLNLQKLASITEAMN
R132G: 69%
A30T: 18.8%
F56V: -2.39%
T101I: 78.6%
Y141E: -2.27%

Other studies, line by line
PhoQ, residues 284 288 289 292 302 303 SCEHLI  fold induction (PhoP, residues 12 14 15 18 19 LHHSG (Escherichia coli, UniProt P23836); Sort-seq, measured: YFP reporter; E. coli; PhoQ-PhoP variant library, added: 10 µM Mg2+; baseline: high Mg2+ state, higher = stronger signaling): 10.2

For quick reference, copied from above (sample 2):
GACAAGCAGGUGCUGGUGCACUGGGGUUUCUACCCAGACAGCUAUGACACUUGGGUCCACAGUAAUGAUGUUGAUGCUGAAAUUGAAGAUGCACCAAUCCCAGAAAAGCCCUGGAAGGUU: 0.293 ratio
UGUUCCACUUUACUUUCCUUCCCGGGAAGUUUGUUUGGCUUUCUUCCAUUGUUGUUUUUGUAGCUUUUACUUCAGAAGUCUGUAUUUCCAUAAGCCAGAGGUUGUAAAGCCACUGAUGUU: 0.428 ratio
